# Assay results pooled from the literature.
# Numbers after ± are the reported error.
# Method: steady-state kinetics
# B1: GTPBP3 E315A (Homo sapiens, UniProt Q969Y2); chain TRRSSGAPAPGSGATIFALSSGQGRCGIAVIRTSGPASGHALRILTAPRDLPLARHASLRLLSDPRSGEPLDRALVLWFPGPQSFTGEDCVEFHVHGGPAVVSGVLQALGSVPGLRPAEAGEFTRRAFANGKLNLTEVEGLADLIHAETEAQRRQALRQLDGELGHLCRGWAETLTKALAHVEAYIDFGEDDNLEEGVLEQADIEVRALQVALGAHLRDARRGQRLRSGVHVVVTGPPNAGKSSLVNLLSRKPVSIVSPEPGTTRDVLETPVDLAGFPVLLSDTAGLREGVGPVAQEGVRRARERLEQADLILAMLDASDLASPSSCNFLATVVASVGAQSPSDSSQRLLLVLNKSDLLSPEGPGPGPDLPPHLLLSCLTGEGLDGLLEALRKELAAVCGDPSTDPPLLTRARHQHHLQGCLDALGHYKQSKDLALAAEALRVARGHLTRLTGGGGTEEILDIIFQDFCVGK
# B2: MCAT R178Q (Homo sapiens, UniProt Q8IVS2); chain GQGSQVVGMGRGLLNYPRVRELYAAARRVLGYDLLELSLHGPQETLDRTVHCQPAIFVASLAAVEKLHHLQPSVIENCVAAAGFSVGEFAALVFAGAMEFAEGLYAVKIQAEAMQEASEAVPSGMLSVLGQPQSKFNFACLEAREHCKSLGIENPVCEVSNYLFPDCRVISGHQEALRFLQKNSSKFHFRRTRMLPVSGAFHTRLMEPAVEPLTQALKAVDIKKPLVSVYSNVHAHRYRHPGHIHKLLAQQLVSPVKWEQTMHAIYERKKGRGFPQTFEVGPGRQLGAILKSCNMQAWKSYSAVDVL
# B3: POLH (Homo sapiens, UniProt Q9Y253); chain MATGQDRVVALVDMDCFFVQVEQRQNPHLRNKPCAVVQYKSWKGGGIIAVSYEARAFGVTRSMWADDAKKLCPDLLLAQVRESRGKANLTKYREASVEVMEIMSRFAVIERASIDEAYVDLTSAVQERLQKLQGQPISADLLPSTYIEGLPQGPTTAEETVQKEGMRKQGLFQWLDSLQIDNLTSPDLQLTVGAVIVEEMRAAIERETGFQCSAGISHNKVLAKLACGLNKPNRQTLVSHGSVPQLFSQMPIRKIRSLGGKLGASVIEILGIEYMGELTQFTESQLQSHFGEKNGSWLYAMCRGIEHDPVKPRQLPKTIGCSKNFPGKTALATREQVQWWLLQLAQELEERLTKDRNDNDRVATQLVVSIRVQGDKRLSSLRRCCALTRYDAHKMSHDAFTVIKNCNTSGIQTEWSPPLTMLFLCATKFSASAPSSSTDITSFLSSDPSSLPKVPVTSSEAKTQGSGPAVTATKKATTSLESFFQKAAERQKVKEASLSSLTAPTQAPMSNSPSKPSLPFQTSQSTGTEPFFKQKSLLLKQKQLNNSSVSSPQQNPWSNCKALPNSLPTEYPGCVPVCEGVSKLEESSKATPAEMDLAHNSQSMHASSASKSVLEVTQKATPNPSLLAAEDQVPCEKCGSLVPVWDMPEHMDYHFALELQKSFLQPHSSNPQVVSAVSHQGKRNPKSPLACTNKRPRPEGMQTLESFFKPLTH
# B4: enzyme (Arabidopsis thaliana, UniProt Q9LTH3); chain MEELGVKRRIVLVPVPAQGHVTPIMQLGKALYSKGFSITVVLTQYNRVSSSKDFSDFHFLTIPGSLTESDLKNLGPFKFLFKLNQICEASFKQCIGQLLQEQGNDIACVVYDEYMYFSQAAVKEFQLPSVLFSTTSATAFVCRSVLSRVNAESFLLDMKDPKVSDKEFPGLHPLRYKDLPTSAFGPLESILKVYSETVNIRTASAVIINSTSCLESSSLAWLQKQLQVPVYPIGPLHIAASAPSSLLEEDRSCLEWLNKQKIGSVIYISLGSLALMETKDMLEMAWGLRNSNQPFLWVIRPGSIPGSEWTESLPEEFSRLVSERGYIVKWAPQIEVLRHPAVGGFWSHCGWNSTLESIGEGVPMICRPFTGDQKVNARYLERVWRIGVQLEGELDKGTVERAVERLIMDEEGAEMRKRVINLKEKLQASVKSRGSSFSSLDNFVNSLKMMNFM
# B5: NahK (Pseudomonas putida, UniProt Q1XGK3); chain MNRTLTREQVLALAEHIENAELNVHDIGKVTNDFPEMTFADAYDVQWEIRRRKEARGNKIVGLKMGLTSWAKMAQMGVETPIYGFLADYFSVPDGGVVDCSKLIHPKIEAEISVVTKAPLHGPGCHLGDVIAAIDYVIPTVEVIDSRYENFKFDLISVVADNASSTRFITGGRMASLEEVDLRTLGVVMEKNGEVVELGAGAAVLGHPLSSVAMLANLLAERGEHIPAGTFIMTGGITAAVPVAPGDNITVRYQGLGSVSARFI
# B6: BaiA1 (Clostridium scindens, UniProt P07914); chain MKLVQDKITIITGGTRGIGFAAAKLFIENGAKVSIFGETQEEVDTALAQLKELYPEEEVLGFAPDLTSRDAVMAAVGTVAQKYGRLDVMINNAGITMNSVFSRVSEEDFKNIMDINVNGVFNGAWSAYQCMKDAKQGVIINTASVTGIYGSLSGIGYPTSKAGVIGLTHGLGREIIRKNIRVVGVAPGVVDTDMTKGLPPEILEDYLKTLPMKRMLKPEEIANVYLFLASDLASGITATTISVDGAYRP
# B7: asnB E349D (Escherichia coli, UniProt P22106); chain CSIFGVFDIKTDAVELRKKALELSRLMRHRGPDWSGIYASDNAILAHERLSIVDVNAGAQPLYNQQKTHVLAVNGEIYNHQALRAEYGDRYQFQTGSDCEVILALYQEKGPEFLDDLQGMFAFALYDSEKDAYLIGRDHLGIIPLYMGYDEHGQLYVASEMKALVPVCRTIKEFPAGSYLWSQDGEIRSYYHRDWFDYDAVKDNVTDKNELRQALEDSVKSHLMSDVPYGVLLSGGLDSSIISAITKKYAARRVEDQERSEAWWPQLHSFAVGLPGSPDLKAAQEVANHLGTVHHEIHFTVQEGLDAIRDVIYHIETYDVTTIRASTPMYLMSRKIKAMGIKMVLSGDGSDEVFGGYLYFHKAPNAKELHEETVRKLLALHMYDCARANKAMSAWGVEARVPFLDKKFLDVAMRINPQDKMCGNGKMEKHILRECFEAYLPASVAWRQKEQFSDGVGYSWIDTLKEVAAQQVSDQQLETARFRFPYNTPTSKEAYLYREIFEELFPLPSAAECVPGGPSVACSSAKAIEWDEAFKKMDDPSGRAVGVHQSAYK
# B8: enzyme E385A (Sinorhizobium meliloti, UniProt Q92UV7); chain MTNAEVTIAVRHEPMRIAGRLVDTDDRVEVRYPWNDTVVGTVPAGRAEHAREAFAIAAAYQPKLTRYERQKILLATAEALAARKEEISDVITLELGISKADSLYEVGRAFDVFTLAGQMCIRDDGEIFSCDLTPHGKARKIFTMREPLTAISAITPFNHPLNMVAHKVAPAIATNNCVVVKPTELTPMTALLLADILYEAGLPPEMLSVVTGWPADIGMEMITNPHVDLVTFTGSVPVGKLIAANAHYKRQVLELGGNDPLIILNDLSDDDLARAADLAVAGATKNSGQRCTAVKRILCQESVADRFVPLVLERAKRLRFGDPMDRSTDLGTVIHEKAAALFEERVMRAAEEGADILYHPGRSGALLPPIVVDRVPHQSDLVLEATFGPIIPIVRVPDDDDATITLSNSTAFGLSSGVCTNDYRRMQKYIAGLKVGTVNIWEVPGYRIEMSPFGGIKDSGNGYKEGVIEAMKSFTNVKTFSLPWP
# B9: enzyme (Brachypodium distachyon, UniProt I1HY48); chain MGSIASEERTVTGWAARDADGHLSPYTYTLRKTGPEDVLVKVLYCGICHTDIHQAKNHLGASKYPMVPGHEVVGEVVEVGGEVSKYSAGDVVGVGVIVGCCRECRPCKASVEQYCNKRIWSYNDVYTDGRPTQGGFSSAMVVDQKFVVRIPAGLAPEQAAPLLCAGVTVYSPLKHFGLMSPGLRGGILGLGGVGHMGVKVAKSMGHHVTVISSSGKKRAEAMDDLGADAYLVSSDADQMAAAADSLDYVIDTVPVKHPLEPYLSLLKMDGKLVLMGVIGEPLSFVSPMVMLGRKSITGSFIGSMEETEEVLKFCVEKGLTSQIEVVKMDYLNEALERLERNDVRYRFVVDVAGSKIEDAA
# B10: protein Y93S (Thermus thermophilus, UniProt Q5SKR5); chain MSAPKPFVIGIAGGTASGKTTLAQALARTLGERVALLPMDHYYKDLGHLPLEERLRVNYDHPDAFDLALYLEHAQALLRGLPVEMPVYDFRASTRSPRRTPVRPAPVVILEGILVLYPKELRDLMDLKVFVDADADERFIRRLKRDVLERGRSLEGVVAQYLEQVKPMHLHFVEPTKRYADVIVPRGGQNPVALEMLAAKALARLARMGAA
# B11: protein (Amanita muscaria, UniProt A0A650FNW1); chain MSTKPETDLQTVLDSEIKEWHFHIYFHQNNAAEHQAALELRDAVLRLRQDGAFVAVPLFRVNMDPMGPHPVGSYEIWVPSETFASVFSYLCMNRGRLSILVHPLTREELRDHEIRNAWIGPSFPLNLANLPIKSDEIPLQYPSLKLGYSSTAHKMSLEERRKLGDDIEAVLRGEKEAARAPHRDA
Molecule,substrate,pH,temperature,setting,together with,kcat [s⁻¹]
B1 (GTPBP3 E315A),Nc1nc2c(ncn2[C@@H]2O[C@H](COP(=O)(O)OP(=O)(O)OP(=O)(O)O)[C@@H](O)[C@H]2O)c(=O)[nH]1,pH 8,37 °C,KCl 300 mM,,0.00117 ± 0.000333
B2 (MCAT R178Q),CC(=O)SCCNC(=O)CCNC(=O)[C@H](O)C(C)(C)COP(=O)(O)OP(=O)(O)OC[C@H]1O[C@@H](n2cnc3c(N)ncnc32)[C@H](O)[C@@H]1OP(=O)(O)O,pH 6.8,20 °C,labelled substrate,holo-ACP 20 µM,0.00617 ± 0.0005
B3 (POLH),Cc1cn([C@H]2C[C@H](O)[C@@H](COP(=O)(O)OP(=O)(O)OP(=O)(O)O)O2)c(=O)[nH]c1=O,pH 8,37 °C,misinsertion opposite dT,Mg2+,0.00233 ± 6.67e-05
B4 (enzyme),O=c1ccn([C@@H]2O[C@H](CO[P@@](=O)(O)O[P@@](=O)(O)O[C@H]3O[C@H](CO)[C@@H](O)[C@H](O)[C@H]3O)[C@@H](O)[C@H]2O)c(=O)[nH]1,pH 7.5,25 °C,,,0.00832
B5 (NahK),O=C(O)C/C=C/C(=O)C(=O)O,pH 7.4,25 °C,sodium phosphate 20 mM,MgCl2 5 mM,98.8 ± 2.7
B6 (BaiA1),C[C@H](CCC(=O)SCCNC(=O)CCNC(=O)[C@H](O)C(C)(C)COP(=O)(O)OP(=O)(O)OC[C@H]1O[C@@H](n2cnc3c(N)ncnc32)[C@H](O)[C@@H]1OP(=O)(O)O)[C@H]1CC[C@H]2[C@@H]3CC[C@@H]4CC(=O)CC[C@]4(C)[C@H]3CC[C@]12C,pH 8.7,37 °C,,NADH,0.7
B7 (asnB E349D),NC(=O)CC[C@H](N)C(=O)O,pH 8,37 °C,"100 mM NaCl, glutaminase site",MgCl2; no ATP,4.1 ± 0.1
"Ptb (Listeria monocytogenes, UniProt Q8Y7B7)",CCCC(=O)SCCNC(=O)CCNC(=O)[C@H](O)C(C)(C)COP(=O)(O)OP(=O)(O)OC[C@H]1O[C@@H](n2cnc3c(N)ncnc32)[C@H](O)[C@@H]1OP(=O)(O)O,pH 7.5,25 °C,apparent,,674 ± 25.2
B8 (enzyme E385A),NC(=O)c1ccc[n+]([C@@H]2O[C@H](COP(=O)(O)OP(=O)(O)OC[C@H]3O[C@@H](n4cnc5c(N)ncnc54)[C@H](O)[C@@H]3O)[C@@H](O)[C@H]2O)c1,pH 7.5,30 °C,cofactor varied,,0.19 ± 0.03
B9 (enzyme),NC(=O)c1ccc[n+]([C@@H]2O[C@H](COP(=O)(O)OP(=O)(O)OC[C@H]3O[C@@H](n4cnc5c(N)ncnc54)[C@H](OP(=O)(O)O)[C@@H]3O)[C@@H](O)[C@H]2O)c1,pH 8.8,23 °C,cofactor varied,,9.87
B10 (protein Y93S),Nc1ccn([C@@H]2O[C@H](CO)[C@@H](O)[C@H]2O)c(=O)n1,pH 7.2,25 °C,KCl 100 mM,ATP 100–200 µM,7.1 ± 0.6
B11 (protein),N[C@@H](Cc1ccc(O)c(O)c1)C(=O)O,pH 8.5,25 °C,ascorbic acid 10 mM,O2,0.91 ± 0.00167
